Measured values from different studies.
Each line is one published result; not all experiments were run side by side. Values joined by “and” are separate records of one study, mostly repeats; a detail may differ. ± marks the error that the study gave.

SMILES = Nc1nc2cc(CC[C@H]3C[C@@H](n4ccc5c(N)ncnc54)[C@H](O)[C@@H]3O)ccc2cc1Br; test system = A-427 xenograft, mouse; conditions = 10.0 mg/kg/day, day 34; quantity = %ΔTGI; result = 115%
SMILES = COC1OC(C)C(O)C(OC2OC(C)C(O)C(OC3OC(C)C(O)C(OC4OC(C)C(O)C(OC5OC(C)C(O)C(OC6OC(C)C(O)C(OC7OC(C)C(O)C(OS(=O)(=O)O)C7OS(=O)(=O)O)C6OS(=O)(=O)O)C5OS(=O)(=O)O)C4OS(=O)(=O)O)C3OS(=O)(=O)O)C2OS(=O)(=O)O)C1OS(=O)(=O)O (stereo not drawn); test system = human plasma; conditions = 128 µg/mL; quantity = activated partial thromboplastin time; result = 39.1 ± 0.7 s
SMILES = Nc1ccc2c(c1)C(=O)N(C1CCC(=O)NC1=O)C2=O (stereo not drawn); assay = deuterium-hydrogen exchange; test system = aqueous phosphate buffer; conditions = pH 7.4, 37 °C; quantity = exchange rate constant; result = -0.0175 h⁻¹
SMILES = COC1OC(C)C(OC2OC(C)C(OS(=O)(=O)O)C(OC3OC(C)C(OC4OC(C)C(OS(=O)(=O)O)C(OS(=O)(=O)O)C4OS(=O)(=O)O)C(OS(=O)(=O)O)C3OS(=O)(=O)O)C2OS(=O)(=O)O)C(OS(=O)(=O)O)C1OS(=O)(=O)O (stereo not drawn); test system = human plasma; conditions = 128 µg/mL; quantity = activated partial thromboplastin time; result = 32.3 ± 0.6 s
SMILES = CCCCCCCCCCCCCCCC(=O)NCCCC[C@H](NC(=O)[C@H](CCC(=O)O)NC(=O)[C@H](Cc1ccc(O)cc1)NC(=O)[C@H](CCC(=O)O)NC(=O)COCC(=O)NCCCOCCOCCOCCCNC(=O)[C@H](Cc1ccccc1)NC(=O)[C@H](CC(N)=O)NC(=O)[C@H](Cc1c[nH]cn1)NC(=O)[C@@H](NC(=O)[C@H](CC(=O)O)NC(=O)[C@H](CCC(N)=O)NC(=O)[C@H](CC(C)C)NC(=O)[C@H](CCCCN)NC(=O)[C@H](CCCCN)NC(=O)[C@H](CCCNC(=N)N)NC(=O)[C@H](CC(C)C)NC(=O)[C@H](Cc1c[nH]c2ccccc12)NC(=O)[C@H](CCC(=O)O)NC(=O)[C@@H](NC(=O)[C@H](CCCNC(=N)N)NC(=O)[C@H](CCC(=O)O)NC(=O)[C@H](CCSC)NC(=O)[C@H](CO)NC(=O)[C@H](CC(N)=O)NC(=O)[C@H](CC(C)C)NC(=O)[C@H](Cc1c[nH]cn1)NC(=O)[C@H](CCCCN)NC(=O)CNC(=O)[C@H](CC(C)C)NC(=O)[C@H](CC(N)=O)NC(=O)[C@H](Cc1c[nH]cn1)NC(=O)[C@H](CCSC)NC(=O)[C@H](CC(C)C)NC(=O)[C@H](CCC(N)=O)NC(=O)[C@@H](NC(=O)[C@H](CCC(=O)O)NC(=O)[C@H](CO)NC(=O)[C@@H](NC(=O)[C@@H](N)CO)C(C)C)[C@@H](C)CC)C(C)C)C(C)C)C(=O)N[C@@H](CCC(=O)O)C(=O)N[C@@H](Cc1ccc(O)cc1)C(=O)N[C@@H](CCC(=O)O)C(N)=O; assay = micro-CT; test system = humanized PTH1R mouse, femur; conditions = dose not given; quantity = bone volume/total volume; result = 37.7% and 44.9%
SMILES = CN1CCC[C@]1(C)/C=C/S(=O)(=O)NC(=O)Nc1c2c(cc3c1CCC3)CCC2; test system = human, whole blood ex vivo; conditions = 50 mg single dose, 6 h, single ascending dose, added: LPS and ATP; quantity = IL-18 inhibition; result = 119%
SMILES = COc1cc2c(NC3CCN(C(C)C)CC3)cc(N3CCOCC3)nc2cc1OCCCN1CCCC1; assay = TMT proteomics, item: MDH1; test system = 5xFAD mice, hippocampus; conditions = dose not given, unit not given; how to read = relative to: wild type; quantity = protein level difference; result = -0.0462
SMILES = CC(=O)[O-].O.[Cu+2].[O-]c1ccc(Br)cc1C=NCCN1CCOCC1; assay = DPPH radical scavenging; conditions = 200 µM; quantity = inhibition; result = 65.5%
SMILES = COC1OC(C)C(OS(=O)(=O)O)C(OC2OC(C)C(OS(=O)(=O)O)C(OC3OC(C)C(OS(=O)(=O)O)C(OC4OC(C)C(OS(=O)(=O)O)C(OC5OC(C)C(OS(=O)(=O)O)C(OC6OC(C)C(OS(=O)(=O)O)C(OC7OC(C)C(OS(=O)(=O)O)C(OC8OC(C)C(OS(=O)(=O)O)C(OC9OC(C)C(OS(=O)(=O)O)C(OC%10OC(C)C(OS(=O)(=O)O)C(OS(=O)(=O)O)C%10OS(=O)(=O)O)C9OS(=O)(=O)O)C8OS(=O)(=O)O)C7OS(=O)(=O)O)C6OS(=O)(=O)O)C5OS(=O)(=O)O)C4OS(=O)(=O)O)C3OS(=O)(=O)O)C2OS(=O)(=O)O)C1OS(=O)(=O)O (stereo not drawn); test system = human plasma; conditions = 8 µg/mL; quantity = activated partial thromboplastin time; result = 46.5 s and 46.9 s and 46.8 s
SMILES = COc1ccc(NC(=O)c2ccc3[nH]c(-c4ccc(N(C)C)cc4)nc3c2)cn1; test system = CT26, BALB/c mice, subcutaneous syngeneic graft; conditions = dose not given, day 4; quantity = tumour volume; result = 86.8 mm3 and 119 mm3 and 100 mm3 and 242 mm3
SMILES = COC1OC(C)C(OC2OC(C)C(OS(=O)(=O)O)C(OC3OC(C)C(OC4OC(C)C(OS(=O)(=O)O)C(OC5OC(C)C(OC6OC(C)C(OS(=O)(=O)O)C(OC7OC(C)C(OS(=O)(=O)O)C(OS(=O)(=O)O)C7OS(=O)(=O)O)C6OS(=O)(=O)O)C(OS(=O)(=O)O)C5OS(=O)(=O)O)C4OS(=O)(=O)O)C(OS(=O)(=O)O)C3OS(=O)(=O)O)C2OS(=O)(=O)O)C(OS(=O)(=O)O)C1OS(=O)(=O)O (stereo not drawn); test system = human plasma; conditions = 16 µg/mL; quantity = activated partial thromboplastin time; result = 75.7 s and 77.5 s and 79.5 s
SMILES = COCC1CN(C2CCN(c3cc(OC)c(Nc4ncc(Br)c(Nc5ccc6c(c5P(C)(C)=O)OCCO6)n4)cc3C)CC2)C1; assay = RECIST 1.1; test system = advanced EGFR-mutant NSCLC patients; conditions = 150 mg once daily; quantity = not evaluable patients; result = 0%
SMILES = COc1ccccc1-c1ccncc1C(=O)Nc1nnc(OCc2ccc(Cl)cc2)s1; test system = Brca1 Δ11/Δ11 Polq-/- MEF, Mus musculus; conditions = 20 µM; how to read = relative to: 0 µM; quantity = colony survival; result = 17.7%
SMILES = CC(=O)Nc1ccc([C@H]2[C@@H](F)[C@@H](F)C[C@@H](F)[C@H]2F)cc1; assay = hepatocyte stability; test system = cryopreserved human hepatocytes; conditions = 1 µM; quantity = hepatic clearance; result = 11 mL/min/kg
SMILES = NC[C@@H](C(=O)Nc1ccc(-c2cn[nH]c2)cc1)c1ccccc1; assay = tonometry; test system = NZW rabbit, magnetic bead-induced ocular hypertension; conditions = ocular, 0.1%, 4 h; quantity = IOP; result = 30.5 mmHg
SMILES = COC1CN([C@H]2CC[C@H]([C@@]3(C)Oc4c(Cl)cc(C(=O)NCc5c(SC)cc(C)[nH]c5=O)c(C)c4O3)CC2)C1; assay = RNA-seq, item: SLC6A9; test system = human, whole blood; conditions = dose not given, 24 h; how to read = relative to: pretreatment baseline; quantity = log2 fold change; result = 1.77
SMILES = COC1OC(C)C(OS(=O)(=O)O)C(OC2OC(C)C(OS(=O)(=O)O)C(OC3OC(C)C(OS(=O)(=O)O)C(OC4OC(C)C(OS(=O)(=O)O)C(OC5OC(C)C(OS(=O)(=O)O)C(OC6OC(C)C(OS(=O)(=O)O)C(OS(=O)(=O)O)C6OS(=O)(=O)O)C5OS(=O)(=O)O)C4OS(=O)(=O)O)C3OS(=O)(=O)O)C2OS(=O)(=O)O)C1OS(=O)(=O)O (stereo not drawn); test system = human plasma; conditions = 8 µg/mL; quantity = activated partial thromboplastin time; result = 46.3 s and 45.8 s and 45.9 s
SMILES = COc1cc(N2CCN(C(=O)C3CCCN3)CC2)ccc1Nc1ncc(Cl)c(Nc2ccccc2P(C)(C)=O)n1 (stereo not drawn); test system = nude mice, NCI-H3122 xenograft; conditions = intraperitoneal, 10 mg/kg every other day, day 3; quantity = tumour volume; result = 40.8 mm3 and 44.9 mm3 and 43.3 mm3 and 39 mm3 and 79.2 mm3
SMILES = COC1OC(C)C(OC2OC(C)C(O)C(OC3OC(C)C(OC4OC(C)C(O)C(OC5OC(C)C(OC6OC(C)C(O)C(OC7OC(C)C(OC8OC(C)C(O)C(OC9OC(C)C(O)C(OS(=O)(=O)O)C9OS(=O)(=O)O)C8OS(=O)(=O)O)C(OS(=O)(=O)O)C7OS(=O)(=O)O)C6OS(=O)(=O)O)C(OS(=O)(=O)O)C5OS(=O)(=O)O)C4OS(=O)(=O)O)C(OS(=O)(=O)O)C3OS(=O)(=O)O)C2OS(=O)(=O)O)C(OS(=O)(=O)O)C1OS(=O)(=O)O (stereo not drawn); test system = human plasma; conditions = 16 µg/mL; quantity = activated partial thromboplastin time; result = 53.5 s and 53.6 s and 53.2 s
SMILES = COC(=O)C1CN1S(=O)(=O)c1ccc2cc(C)ccc2c1 (stereo not drawn); test system = mouse, Lewis lung carcinoma; conditions = ip, 100 mg/kg, 240 h; quantity = tumour volume; result = 330 mm3
SMILES = O=C(CCC(F)(F)F)Nc1ccc(C2CCCCC2)cc1; assay = liver microsome stability; test system = dog liver microsomes; conditions = 1 µM; quantity = hepatic clearance; result = 28 mL/min/kg
SMILES = COC1OC(C)C(OS(=O)(=O)O)C(OC2OC(C)C(OS(=O)(=O)O)C(OC3OC(C)C(OS(=O)(=O)O)C(OC4OC(C)C(OS(=O)(=O)O)C(OS(=O)(=O)O)C4OS(=O)(=O)O)C3OS(=O)(=O)O)C2OS(=O)(=O)O)C1OS(=O)(=O)O (stereo not drawn); test system = human plasma; conditions = 16 µg/mL; quantity = activated partial thromboplastin time; result = 42.1 s and 43.4 s
SMILES = COc1cc(O)ccc1CCC(c1ccc(O)cc1)c1cc2c(c(C)c1O)OC(c1ccc(O)cc1)CC2 (mixture of isomers); test system = human blood; conditions = 0.3 µM, added: A23187; quantity = TXB2 level; result = 587 ± 159 pg/mL
SMILES = COc1c(Cl)cccc1Nc1c(-c2ccncc2C#C[C@@]2(C)CCCN2C(=O)/C=C/CN(C)C)[nH]c2c1C(=O)NCC2; test system = female NOD/SCID mouse, PDX; conditions = 50 mg/kg once daily, 21 days, HER2 YVMA; quantity = tumour growth inhibition; result = 130%

Some of these lines once more:
SMILES = Nc1ccc2c(c1)C(=O)N(C1CCC(=O)NC1=O)C2=O (stereo not drawn); assay = deuterium-hydrogen exchange; test system = aqueous phosphate buffer; conditions = pH 7.4, 37 °C; quantity = exchange rate constant; result = -0.0175 h⁻¹
SMILES = COC1OC(C)C(OC2OC(C)C(OS(=O)(=O)O)C(OC3OC(C)C(OC4OC(C)C(OS(=O)(=O)O)C(OS(=O)(=O)O)C4OS(=O)(=O)O)C(OS(=O)(=O)O)C3OS(=O)(=O)O)C2OS(=O)(=O)O)C(OS(=O)(=O)O)C1OS(=O)(=O)O (stereo not drawn); test system = human plasma; conditions = 128 µg/mL; quantity = activated partial thromboplastin time; result = 32.3 ± 0.6 s
SMILES = CCCCCCCCCCCCCCCC(=O)NCCCC[C@H](NC(=O)[C@H](CCC(=O)O)NC(=O)[C@H](Cc1ccc(O)cc1)NC(=O)[C@H](CCC(=O)O)NC(=O)COCC(=O)NCCCOCCOCCOCCCNC(=O)[C@H](Cc1ccccc1)NC(=O)[C@H](CC(N)=O)NC(=O)[C@H](Cc1c[nH]cn1)NC(=O)[C@@H](NC(=O)[C@H](CC(=O)O)NC(=O)[C@H](CCC(N)=O)NC(=O)[C@H](CC(C)C)NC(=O)[C@H](CCCCN)NC(=O)[C@H](CCCCN)NC(=O)[C@H](CCCNC(=N)N)NC(=O)[C@H](CC(C)C)NC(=O)[C@H](Cc1c[nH]c2ccccc12)NC(=O)[C@H](CCC(=O)O)NC(=O)[C@@H](NC(=O)[C@H](CCCNC(=N)N)NC(=O)[C@H](CCC(=O)O)NC(=O)[C@H](CCSC)NC(=O)[C@H](CO)NC(=O)[C@H](CC(N)=O)NC(=O)[C@H](CC(C)C)NC(=O)[C@H](Cc1c[nH]cn1)NC(=O)[C@H](CCCCN)NC(=O)CNC(=O)[C@H](CC(C)C)NC(=O)[C@H](CC(N)=O)NC(=O)[C@H](Cc1c[nH]cn1)NC(=O)[C@H](CCSC)NC(=O)[C@H](CC(C)C)NC(=O)[C@H](CCC(N)=O)NC(=O)[C@@H](NC(=O)[C@H](CCC(=O)O)NC(=O)[C@H](CO)NC(=O)[C@@H](NC(=O)[C@@H](N)CO)C(C)C)[C@@H](C)CC)C(C)C)C(C)C)C(=O)N[C@@H](CCC(=O)O)C(=O)N[C@@H](Cc1ccc(O)cc1)C(=O)N[C@@H](CCC(=O)O)C(N)=O; assay = micro-CT; test system = humanized PTH1R mouse, femur; conditions = dose not given; quantity = bone volume/total volume; result = 37.7% and 44.9%
